Measured values gathered from unrelated publications.
Each numbered part is a random draw from the data of one study; scales do not carry over between parts. Positions count from the first letter of the parent shown.
Chain of UniProt P08588 (whole entry, looked up): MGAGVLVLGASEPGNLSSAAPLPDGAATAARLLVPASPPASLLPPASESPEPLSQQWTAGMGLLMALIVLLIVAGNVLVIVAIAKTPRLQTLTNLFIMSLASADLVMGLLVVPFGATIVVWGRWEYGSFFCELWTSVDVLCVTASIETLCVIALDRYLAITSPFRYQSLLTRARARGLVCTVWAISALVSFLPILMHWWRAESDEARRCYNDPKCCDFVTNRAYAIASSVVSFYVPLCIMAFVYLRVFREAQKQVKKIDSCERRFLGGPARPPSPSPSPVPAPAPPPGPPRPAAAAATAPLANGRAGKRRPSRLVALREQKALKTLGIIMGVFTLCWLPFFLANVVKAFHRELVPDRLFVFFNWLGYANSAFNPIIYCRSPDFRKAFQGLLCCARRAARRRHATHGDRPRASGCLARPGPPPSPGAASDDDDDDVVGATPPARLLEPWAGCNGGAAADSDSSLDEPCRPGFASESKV
Chain of UniProt Q15303 (whole entry, looked up): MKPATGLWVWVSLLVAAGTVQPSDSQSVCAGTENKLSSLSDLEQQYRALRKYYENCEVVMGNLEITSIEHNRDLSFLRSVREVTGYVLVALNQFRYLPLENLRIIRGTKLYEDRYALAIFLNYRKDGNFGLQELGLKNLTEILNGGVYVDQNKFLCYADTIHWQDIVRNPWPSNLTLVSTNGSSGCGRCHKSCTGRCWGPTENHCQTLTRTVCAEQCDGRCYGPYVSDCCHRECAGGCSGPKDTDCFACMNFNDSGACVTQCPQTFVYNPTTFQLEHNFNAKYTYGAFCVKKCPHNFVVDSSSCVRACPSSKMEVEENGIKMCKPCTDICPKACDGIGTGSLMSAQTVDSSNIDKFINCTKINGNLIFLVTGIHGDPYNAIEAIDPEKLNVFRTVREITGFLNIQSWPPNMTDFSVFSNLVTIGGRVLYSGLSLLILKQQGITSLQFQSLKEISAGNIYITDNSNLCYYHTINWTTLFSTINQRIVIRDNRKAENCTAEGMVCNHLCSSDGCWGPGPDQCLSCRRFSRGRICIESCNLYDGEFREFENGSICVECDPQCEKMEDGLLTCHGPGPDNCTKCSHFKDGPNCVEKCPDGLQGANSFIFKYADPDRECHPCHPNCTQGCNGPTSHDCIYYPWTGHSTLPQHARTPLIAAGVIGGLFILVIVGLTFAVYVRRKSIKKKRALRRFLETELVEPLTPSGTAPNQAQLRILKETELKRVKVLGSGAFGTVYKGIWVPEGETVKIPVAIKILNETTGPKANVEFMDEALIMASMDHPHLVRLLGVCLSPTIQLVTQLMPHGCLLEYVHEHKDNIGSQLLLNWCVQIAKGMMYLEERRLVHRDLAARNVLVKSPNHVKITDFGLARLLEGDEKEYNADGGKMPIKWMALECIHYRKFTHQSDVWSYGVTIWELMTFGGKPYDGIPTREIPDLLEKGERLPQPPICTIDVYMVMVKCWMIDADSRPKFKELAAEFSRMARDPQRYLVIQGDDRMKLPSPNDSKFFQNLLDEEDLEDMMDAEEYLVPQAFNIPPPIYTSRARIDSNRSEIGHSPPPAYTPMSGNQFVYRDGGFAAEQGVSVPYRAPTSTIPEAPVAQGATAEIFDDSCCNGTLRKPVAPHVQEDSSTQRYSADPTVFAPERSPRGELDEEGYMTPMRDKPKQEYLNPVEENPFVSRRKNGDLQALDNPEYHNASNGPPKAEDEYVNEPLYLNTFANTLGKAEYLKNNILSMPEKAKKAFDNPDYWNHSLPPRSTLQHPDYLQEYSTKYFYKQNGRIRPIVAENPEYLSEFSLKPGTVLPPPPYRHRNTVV

Study 1
Target: Histone acetyltransferase KAT6A, both winged helices, GST fusion (KAT6A, Homo sapiens, UniProt Q92794, residues 1-181)
Technique: protein binding microarray
Form: double-stranded DNA, one strand shown
Medium: in vitro
Tested at: not given
Setting: 8-mer, flanks averaged, mean of 2 arrays, mostly near background
Baseline: not given
Direction: higher = stronger binding
Endpoint: E-score
Residues (chain): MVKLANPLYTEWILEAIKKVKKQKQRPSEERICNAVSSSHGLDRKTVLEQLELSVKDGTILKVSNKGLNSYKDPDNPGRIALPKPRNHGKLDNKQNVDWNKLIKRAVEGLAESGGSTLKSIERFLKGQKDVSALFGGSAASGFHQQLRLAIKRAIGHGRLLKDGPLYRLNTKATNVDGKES
GGCCGCAA: 0.202
GTTAAGAA: 0.00216
ATCCTTCC: -0.158
TAGCAGCA: -0.229
AGAGTACG: 0.0369
CCATCCTA: -0.127
GATATTAC: 0.0325
CAACATTG: -0.11

Study 2
Target: CCNE1, cyclin fold, Cln2 fusion (human)
Technique: yeast growth competition, sequencing
Medium: yeast
Setting: weak parent motif
Baseline: not given
Direction: higher = stronger binding
Endpoint: normalised enrichment score
Parent: WEE1 docking peptide (human); HKTFRKLRLFDTP
HKTFGKLRLFDTP [R5G]: 0.0768
HKTFRKLRLFMTP [D11M]: 0.789
HKTFRKLRLNDTP [F10N]: -0.442
AKTFRKLRLFDTP [H1A]: -0.226
HKTFRKERLFDTP [L7E]: 0.827
HKTFRKLRLFFTP [D11F]: 1.41
HKTFRKLRLFDTG [P13G]: -0.287
HKTFRKLRLFYTP [D11Y]: 0.294

Single results of other studies
Cc1noc2c(-c3cccnc3NCCN(C)C)cc(-c3ccccc3)nc12  IC50 (ADRB1 (Homo sapiens, UniProt P08588); antagonist): ≥ 100 µM
O=C1NC(=O)C(c2c[nH]c3ccccc23)=C1c1c[nH]c2ccccc12  remaining activity (ERBB4 (Homo sapiens, UniProt Q15303); enzyme activity, inhibitor; 0.5 µM; baseline: control): 110%
Histone H2B type 1-C/E/F/G/I (Homo sapiens, UniProt P62807)  interaction screen (H2AC1 (Homo sapiens, UniProt Q96QV6); cross-linking MS; hits only): cross-linked

Some of these lines once more (study 1):
GTTAAGAA: 0.00216
ATCCTTCC: -0.158
